{"data": "Measurements pooled from the literature", "note": "Parts stem from different laboratories: compare values within a part only."}
{"data": "Block 1", "organism": "Vesicular stomatitis virus", "observed": "pseudovirus infection", "technique": "FDA-approved drug library screen", "concentration": "concentration not given", "setting": "SARS-CoV-2 spike pseudotype", "reference": "vehicle"}
{"SMILES": "Cc1cn(-c2cc(NC(=O)c3ccc(C)c(Nc4nccc(-c5cccnc5)n4)c3)cc(C(F)(F)F)c2)cn1", "GFP-positive cells [%]": 59.9}
{"SMILES": "[I-].[K+]", "GFP-positive cells [%]": 98.3}
{"SMILES": "COc1ccc(C[C@@H](C)NC[C@H](O)c2ccc(O)c(NC=O)c2)cc1.COc1ccc(C[C@@H](C)NC[C@H](O)c2ccc(O)c(NC=O)c2)cc1.O=C(O)/C=C/C(=O)O", "GFP-positive cells [%]": 95.8}
{"SMILES": "O=C(O)CCCN1CCC(O[C@@H](c2ccc(Cl)cc2)c2ccccn2)CC1.O=S(=O)(O)c1ccccc1", "GFP-positive cells [%]": 99.2}
{"data": "Block 2", "target": "Replicase polyprotein 1ab, polymerase (rep, Severe acute respiratory syndrome coronavirus 2, UniProt P0DTD1)", "observed": "enzyme activity", "mode": "inhibitor", "concentration": "20 µM"}
{"SMILES": "O=C(OCC(O)CO)c1ccccc1Nc1ccnc2c(C(F)(F)F)cccc12 (stereo not drawn)", "inhibition [%]": -0.64}
{"SMILES": "N#CSc1cc(SC#N)c(N)nc1N", "inhibition [%]": 29.3}
{"SMILES": "O=C(Nc1ccccc1F)N[C@H]1N=C(c2ccccc2)c2ccccc2NC1=O", "inhibition [%]": 0.29}
{"SMILES": "Cc1[nH]c2ccccc2c1CCNC(=O)c1cccs1", "inhibition [%]": 1.66}
{"SMILES": "NC(=NCCC[C@H](N)C(=O)O)N[N+](=O)[O-]", "inhibition [%]": -6.71}
{"SMILES": "CN1CCN(c2ccc(OC(F)(F)F)c(Nc3ncc4c(n3)-c3c(c(C(N)=O)nn3CCO)CC4)c2)CC1", "inhibition [%]": -8.04}
{"SMILES": "C=C1CC[C@@]2(O)[C@H]3Cc4ccc(O)c5c4[C@@]2(CCN3CC2CC2)[C@H]1O5", "inhibition [%]": -5.59}
{"SMILES": "c1ccc2nc(N3CCNCC3)ccc2c1", "inhibition [%]": 2.31}
{"SMILES": "CC(=O)N(C)c1cc(-c2ccnc3c(C(=O)c4cccs4)cnn23)ccc1F", "inhibition [%]": 0.62}
{"SMILES": "Cc1ccccc1NC(=O)Nc1ccc(CC(=O)N(C)[C@@H](CC(C)C)C(=O)NCC[C@H](NC(=O)[C@@H]2CCCN2S(=O)(=O)c2cc(Cl)cc(Cl)c2)C(=O)O)cc1", "inhibition [%]": -12.3}
{"SMILES": "CCOc1ccccc1-n1c(C(C)N2CCN(C(=O)COc3ccc(Cl)cc3)CC2)nc2ccccc2c1=O (stereo not drawn)", "inhibition [%]": 1.18}
{"SMILES": "CC1CCc2c(cc(Br)c(F)c2Br)N1C=O (stereo not drawn)", "inhibition [%]": -7.11}
{"SMILES": "C=C1C(=O)O[C@@H]2[C@H]3O[C@]3(C)CC/C=C(\\C)CC[C@@H]12", "inhibition [%]": -0.66}
{"SMILES": "O=c1cc(-c2ccc(O)c(O)c2)oc2cc(O)cc(O)c12", "inhibition [%]": 100}
{"SMILES": "Cc1ccc2c(Cl)cc(Cl)c(O)c2n1", "inhibition [%]": -1.58}
{"SMILES": "COc1cc(NS(=O)(=O)c2ccc(N)cc2)nc(OC)n1", "inhibition [%]": 21.6}
{"SMILES": "Cc1c(CN(C)C(=O)/C=C/c2cnc3c(c2)CCC(=O)N3)oc2ccccc12", "inhibition [%]": -5.42}
{"SMILES": "NNc1nncc2ccccc12", "inhibition [%]": 19.9}
{"SMILES": "CC(C)(O)C(=O)N1CCN(c2ccc(C(F)(F)F)c(C3=C(c4c[nH]c5ccccc45)C(=O)NC3=O)c2)CC1", "inhibition [%]": -0.35}
{"SMILES": "Oc1cccc(-c2nc(N3CCOCC3)c3oc4ncccc4c3n2)c1", "inhibition [%]": -0.3}
{"SMILES": "CC(=O)N1CCN(CCOc2ccc(C3CCN(C4=Nn5c(nnc5C(F)(F)F)CC4)CC3)cc2)CC1", "inhibition [%]": -2.36}
{"SMILES": "COC(=O)C1=C(C)NC(C)=C(C(=O)OCCN(C)Cc2ccccc2)C1c1cccc([N+](=O)[O-])c1 (stereo not drawn)", "inhibition [%]": 6.24}
{"SMILES": "Cc1cc2c(C(C)C)c(O)c(O)c(C=O)c2c(O)c1-c1c(C)cc2c(C(C)C)c(O)c(O)c(C=O)c2c1O", "inhibition [%]": 61.3}
{"SMILES": "O=C(Nc1ccc(C(O)(C(F)(F)F)C(F)(F)F)cc1)c1ccc(C(F)(F)F)cc1", "inhibition [%]": 18.1}
{"SMILES": "COc1cc2c(cc1OC)-c1c/c(=N\\c3c(C)cc(C)cc3C)n(C)c(=O)n1CC2", "inhibition [%]": 1.52}
{"data": "Block 3", "target": "Sal-like protein 4, full length isoform B (SALL4, Homo sapiens, UniProt Q9UJQ4-2, residues 1-616)", "technique": "universal PBM", "form": "double-stranded DNA, one strand shown", "matrix": "in vitro", "concentration": "not given", "setting": "8-mer, flanks averaged, mean of replicates", "reading": "higher = stronger binding", "Target sequence (chain)": "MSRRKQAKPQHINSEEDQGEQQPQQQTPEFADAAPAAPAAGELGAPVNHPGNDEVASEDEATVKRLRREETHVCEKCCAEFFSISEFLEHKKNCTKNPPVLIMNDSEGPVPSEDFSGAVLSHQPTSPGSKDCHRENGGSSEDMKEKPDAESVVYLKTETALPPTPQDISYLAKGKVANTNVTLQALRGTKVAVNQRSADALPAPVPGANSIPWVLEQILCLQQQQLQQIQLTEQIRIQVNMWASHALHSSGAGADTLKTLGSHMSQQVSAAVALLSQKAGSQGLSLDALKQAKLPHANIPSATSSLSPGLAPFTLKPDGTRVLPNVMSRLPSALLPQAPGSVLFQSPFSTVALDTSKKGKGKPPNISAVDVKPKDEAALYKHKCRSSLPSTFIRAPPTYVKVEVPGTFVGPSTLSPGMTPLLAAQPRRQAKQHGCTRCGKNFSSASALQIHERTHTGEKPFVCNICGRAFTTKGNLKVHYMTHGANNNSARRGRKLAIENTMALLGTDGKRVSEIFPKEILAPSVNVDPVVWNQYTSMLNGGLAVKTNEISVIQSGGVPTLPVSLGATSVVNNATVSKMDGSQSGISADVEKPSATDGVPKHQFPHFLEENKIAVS"}
{"Oligonucleotide": "ATTTCGTC", "E-score": 0.231}
{"Oligonucleotide": "CGCCAAAG", "E-score": -0.236}
{"Oligonucleotide": "AACCCGGC", "E-score": -0.28}
{"Oligonucleotide": "AGTGGGAC", "E-score": -0.0544}
{"Oligonucleotide": "ACTTTAAC", "E-score": 0.166}
{"Oligonucleotide": "AGACCTTA", "E-score": 0.0107}
{"Oligonucleotide": "CGCACCCC", "E-score": -0.26}
{"Oligonucleotide": "ACCTCGGA", "E-score": -0.0884}
{"data": "Block 4", "target": "Ras GTPase-activating protein-binding protein 1, full length (G3BP1, Homo sapiens, UniProt Q13283)", "technique": "RNA Bind-n-Seq", "form": "RNA", "matrix": "in vitro", "concentration": "200 nM", "setting": "whole 134-nt RNA, ends assumed", "added": "150 mM KCl", "reference": "input library", "reading": "higher = stronger binding", "chain of UniProt Q13283 (whole entry, looked up)": "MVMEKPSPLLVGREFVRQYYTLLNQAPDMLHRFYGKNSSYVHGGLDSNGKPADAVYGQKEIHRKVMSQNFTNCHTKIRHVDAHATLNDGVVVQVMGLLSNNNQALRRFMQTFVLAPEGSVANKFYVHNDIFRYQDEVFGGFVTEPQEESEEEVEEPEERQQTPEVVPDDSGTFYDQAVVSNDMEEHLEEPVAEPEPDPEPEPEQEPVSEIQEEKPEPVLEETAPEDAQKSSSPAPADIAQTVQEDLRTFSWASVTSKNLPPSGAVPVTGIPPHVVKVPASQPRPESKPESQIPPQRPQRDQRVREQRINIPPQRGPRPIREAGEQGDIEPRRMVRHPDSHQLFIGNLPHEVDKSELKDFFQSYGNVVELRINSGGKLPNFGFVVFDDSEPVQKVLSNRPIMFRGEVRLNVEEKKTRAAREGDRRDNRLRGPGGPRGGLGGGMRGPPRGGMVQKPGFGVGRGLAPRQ"}
{"Oligonucleotide": "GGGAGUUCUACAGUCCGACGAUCGCAGGAAGUAAAAACAAAUGGAAAUGCUUCGGAUAGUGGCAGGGGUGGGGGUUGCUAAGGGAAGGGUGGGAUGGGAGUGGGUAAAGAGUUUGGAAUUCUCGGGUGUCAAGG", "log2 enrichment": 1.06}
{"Oligonucleotide": "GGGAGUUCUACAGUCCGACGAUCGUCCUGUGCUACACAUCGUAUGUACCGAAUCAAACCCCCAAAUUUUUAAACCCCCAAAAAAGUAUUAUGUUACGCCGUUCGGAUCUGCACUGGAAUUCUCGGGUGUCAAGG", "log2 enrichment": -0.178}
{"Oligonucleotide": "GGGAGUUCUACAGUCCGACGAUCUAACUUUGGAGGAGGAUCUGAUGGAUAUGGCAGUGGACGUGGAUUUGGGGAUGGCUAUAAUGGGUAUGGAGGAGGACCUGGAGGUGGCAAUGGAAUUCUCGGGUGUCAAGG", "log2 enrichment": 0.339}
{"Oligonucleotide": "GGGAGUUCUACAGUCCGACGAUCUCCUGUGCUACACAUCGUAUGUACCGAAUCAAACCCCCCCAAAUUUUUUUAAACCCAAAAAAGUAUUAUGUUACGCCGUUCGGAUCUGCAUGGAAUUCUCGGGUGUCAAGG", "log2 enrichment": 0.24}
{"Oligonucleotide": "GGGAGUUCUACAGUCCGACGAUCGCAGGAAGUAAAAAUAAAUGGAAAUGCUUCGGAUAGUGGCAGGGGUGGGGGUUGCUAAGGAAAGGGUGGGAUGGGAGUGGGUAAAGAGUUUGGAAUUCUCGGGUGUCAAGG", "log2 enrichment": 0.638}
{"Oligonucleotide": "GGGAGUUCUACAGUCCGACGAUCAAGUCCUGUGCUACACAUCGUAUGUACCGAAUCGGGGUUUUUGGGGAGGGGAGGGGAAAGUAUUAUGUUACGCCGUUCGGAUCUGCACUUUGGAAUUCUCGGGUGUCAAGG", "log2 enrichment": 0.814}
{"Oligonucleotide": "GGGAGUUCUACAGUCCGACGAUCUCCUGUGCUACACAUCGUAUGUACCGAAUCGGGGUGGGGUUUUUGGGGAAAAAAAGGGGAAAGUAUUAUGUUACGCCGUUCGGAUCUGCAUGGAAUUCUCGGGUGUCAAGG", "log2 enrichment": 0.627}
{"Oligonucleotide": "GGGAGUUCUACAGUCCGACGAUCUUUUGAGGAAAGGAUGAAGGAGCUCAGAGAAGAGGUAAGGGUCUCCUAUCCUUCCCCUCUCCCCCAGAUUUGAGUUUUAUGUUAUGAAUCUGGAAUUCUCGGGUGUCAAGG", "log2 enrichment": -0.333}
{"data": "Block 5", "target": "Replicase polyprotein 1ab, main protease (rep, Severe acute respiratory syndrome coronavirus 2, UniProt P0DTD1)", "observed": "enzyme activity", "mode": "inhibitor", "concentration": "20 µM", "setting": "hit confirmation, with DTT"}
{"Structure (SMILES)": "O=C(O)c1ccc(SSc2ccc(C(=O)O)cn2)nc1", "inhibition": "1.5%"}
{"Structure (SMILES)": "Oc1cccc(-c2c3nc(c(-c4cccc(O)c4)c4ccc([nH]4)c(-c4cccc(O)c4)c4nc(c(-c5cccc(O)c5)c5ccc2[nH]5)CC4)C=C3)c1", "inhibition": "-16.6%"}
{"Structure (SMILES)": "Cn1sc(=O)n(Cc2ccccc2)c1=O", "inhibition": "98.9%"}
{"data": "Block 6", "target": "Interferon regulatory factor 5, full length, phosphomimetic (IRF5, Homo sapiens, UniProt Q13568-2, residues 1-514, K96S/S451D/S453D/S456D/S462D)", "technique": "protein-binding microarray", "form": "double-stranded DNA, one strand shown", "matrix": "in vitro", "concentration": "250 nM", "setting": "60-bp whole probe", "added": "salmon DNA 0.4 mg/ml", "reference": "random background probes", "reading": "higher = stronger binding", "constant ends, left off below": "GCCTAGCAC … GTCTTGATTCGCTTGACGCTGCTG"}
{"Oligonucleotide": "GACGGCCTGGGTTTCGGGACGTGCTAG", "log fluorescence": "2.31 z-score"}
{"Oligonucleotide": "TCAGCTTTCTTTATGCAACTGTGCTAG", "log fluorescence": "1.54 z-score"}
{"Oligonucleotide": "GACGATAACGGGACTGGAGACGTGCTA", "log fluorescence": "0.217 z-score"}
{"Oligonucleotide": "TTAGATTTCAGTCTCGAGTAGTGCTAG", "log fluorescence": "2.1 z-score"}
{"Oligonucleotide": "GACGAACTAGGGACTGGAGACGTGCTA", "log fluorescence": "-0.548 z-score"}
{"Oligonucleotide": "TCAAATGTCCTTTCTCCAACTGTGCTA", "log fluorescence": "1 z-score"}
{"Oligonucleotide": "TCGTTTCCCAAGTTTATACCTGTGCTA", "log fluorescence": "0.738 z-score"}
{"Oligonucleotide": "TTAGATCTTAGTATCGATTAGTGCTAG", "log fluorescence": "6.76 z-score"}
{"data": "Other studies, line by line"}
{"Oligonucleotide": "AGGGGCAT", "target": "Protein max, full length (MAX, Homo sapiens, UniProt P61244-2, residues 1-151)", "assay": "protein-binding microarray", "system": "double-stranded DNA, one strand shown, in vitro", "setting": "not given, k-mer, scored over probes, only values ≥0.25", "how to read": "higher = stronger binding", "quantity": "E-score", "result": 0.257}
{"note": "A few entries again (block 6):"}
{"Oligonucleotide": "GACGGCCTGGGTTTCGGGACGTGCTAG", "log fluorescence": "2.31 z-score"}
{"Oligonucleotide": "TCAGCTTTCTTTATGCAACTGTGCTAG", "log fluorescence": "1.54 z-score"}
{"Oligonucleotide": "GACGATAACGGGACTGGAGACGTGCTA", "log fluorescence": "0.217 z-score"}
{"Oligonucleotide": "TTAGATTTCAGTCTCGAGTAGTGCTAG", "log fluorescence": "2.1 z-score"}
{"Oligonucleotide": "GACGAACTAGGGACTGGAGACGTGCTA", "log fluorescence": "-0.548 z-score"}
{"Oligonucleotide": "TCAAATGTCCTTTCTCCAACTGTGCTA", "log fluorescence": "1 z-score"}
{"Oligonucleotide": "TCGTTTCCCAAGTTTATACCTGTGCTA", "log fluorescence": "0.738 z-score"}
{"Oligonucleotide": "TTAGATCTTAGTATCGATTAGTGCTAG", "log fluorescence": "6.76 z-score"}
